Published values collected from several papers.
Protocols differ between the studies behind these lines. ± marks the error that the study gave.

| SMILES | cell line | assay | setting | IC50 |
| --- | --- | --- | --- | --- |
| O=C(/C=C(O)/C=C/c1cccs1)/C=C/c1cccs1 | EA.hy 926 | cell growth or viability, MTT | 72 h | 43.7 µM |
| CC(C)(C)OC(=O)N[C@@H](Cc1c[nH]c2ccccc12)C(=O)OC1CC2(C)C(CC(O)C3C(C4(C)CCCC(C)(C)O4)CCC32C)C2(C)CCC(O)C(C)(C)C12 (some centres unmarked) | Hep3B | HRE reporter gene, inhibitor | 24 h, hypoxia | 1.25 ± 0.16 µM |
| C=CC(OC(C)=O)c1cc(OC)cc(OC)c1 (centres unmarked) | HMEC | MTT | 24 h | > 50 µM |
| COc1ccc(/C=C\C(=O)OC2CCC3(C)C(C(O)CC4(C)C3CC(O)C3C(C5(C)CCCC(C)(C)O5)CCC34C)C2(C)C)cc1 (centres unmarked) | Hep3B | HRE reporter gene, inhibitor | 24 h, hypoxia | 1.47 ± 0.08 µM |
| CC(C)C1OC(=O)C(NC(=O)c2cccc(O)c2)C(C)OC(=O)C(C(C)C)OC(=O)C(C)(C)C(=O)C(Cc2ccccc2)OC1=O (centres unmarked) | PC-9/GR gefitinib-resistant | cell viability, CCK-8 | 72 h | 9.61 ± 0.624 µM |
| COc1ccc(C(c2c[nH]c3ccccc23)c2c[nH]c3ccccc23)cc1 | B16 | cell growth or viability, MTT | 24 h | 5.31 µM |
| Clc1ccc(NN=C(c2ccccc2)c2ccccn2)nc1 | NCI-H358 |  |  | 0.1 µM |
| CCNC(=O)OCc1c(COC(=O)NCC)c(-c2ccc(OC)cc2)n2c1Cc1ccccc1-2 | PC-9 gefitinib-resistant B4 | cell growth, Alamar Blue | 72 h | 57.7 ± 3.4 µM |
| COc1cc(-c2coc3cc(O)cc(O)c3c2=O)ccc1O | Huh-7 | cell growth or viability, MTT | 24 h | > 100 µM |
| Cc1ccc(C(=O)OCCCn2ccc(=O)c(OCc3ccccc3)c2C)cc1 | fibroblast cells | cell viability, MTT | 48 h | 95 µg/mL |
| COc1cccc(/C=N/NC(=O)COc2ccc(/C=N/NC(=O)C(C)c3ccc(CC(C)C)cc3)cc2)c1O (centres unmarked) | U87 MG | cytotoxicity, MTT |  | 122.5 ± 0.14 µM |
| CC[C@H](C(=O)N1CCCC[C@H]1C(=O)O[C@H](CCc1ccc(OC)c(OC)c1)c1cccc(OCC(=O)NCCOCCOCCN(C)C/C=C/C(=O)Nc2cc3c(Nc4ccc(F)c(Cl)c4)ncnc3cc2OC)c1)c1cc(OC)c(OC)c(OC)c1 | NCI-H1975 expressing FKBP12F36V-PTPN2 | cell viability, CellTiter-Glo | 6 days | 1.26 µM |
| O=C(NO)c1ccc(Nc2cnc3ccccn23)cc1 | CAL-27 | cell growth or viability, MTT |  | 4.61 µM |
| COc1ccc(CCC(=O)c2c(O)cc(OC)cc2O)cc1 | human cells | NF-κB reporter gene, inhibitor | together with: TNF-alpha | 11 µM |
| CC1(C)CCCC(C)(C2CCC3(C)C2C(O)CC2C4(C)CCC(OC(=O)C=Cc5ccccc5)C(C)(C)C4C(OC(=O)C=Cc4ccccc4)CC23C)O1 (centres unmarked) | Hep3B | HRE reporter gene, inhibitor | 24 h, hypoxia | > 30 µM |
| CN1CCc2cc(Nc3ncc(C(F)(F)F)c(NCc4cc[nH]n4)n3)ccc2C1 | GL261 | cell growth or viability, MTT | 72 h | 2.77 µM |
| CC1(C)CCCC(C)(C2CCC3(C)C2C(O)CC2C4(C)CCC(O)C(C)(C)C4C(OC(=O)/C=C\c4ccc(Cl)cc4)CC23C)O1 (centres unmarked) | Hep3B | HRE reporter gene, inhibitor | 24 h, hypoxia | 6.59 ± 0.11 µM |
| O=C1/C(=C/c2ccccc2F)CNC/C1=C\c1ccccc1F | MGC-803 | cell growth or viability, MTT | 72 h | 3.1 µM |

| SMILES | cell line | assay | setting | IC50 |
| --- | --- | --- | --- | --- |
| COc1cc(CN2CCN(c3ccc(C(F)(F)F)cc3)CC2)c2cc3[n+](cc2c1O)CCc1cc2c(cc1-3)OCO2 | Ca-Ski | cell growth or viability, SRB | 48 h | 4.82 µg/mL |
| CN1CCCC1CCO/N=C1/C=C2CCC3C(CC[C@]4(C)/C(=C/c5ccccn5)CCC34)[C@@]2(C)CC1 (some centres unmarked) | CEM | cytotoxicity, alamarBlue | 72 h | 21.9 µM |
| O=C(NNc1nc(-c2ccccc2)cs1)c1cc2ccc(O)cc2oc1=O | EA.hy 926 | cell growth or viability, SRB | 72 h | 8.4 µM |
| Cc1ccc(NC(=O)c2c(C)oc3ccc(O)c(CN4CCCCCC4)c23)cc1 | JIM1 | cell viability, MTS | 72 h | 14.1 ± 1.3 µM |
| C=CCOC(=O)[C@]12CS[C@H](c3ccccc3)N1C(=O)/C(=C(\O)CCc1ccccc1)C2=O | MDCK | cell growth or viability, resazurin |  | 7.81 µg/mL |
| COc1cc(N2CCN(C)CC2)ccc1Nc1ncc2c(n1)N(C)c1ccc(C)cc1C(=O)N2CC(F)(F)F | PaTu 8902 | cell growth or viability | 5 days, 3D culture | > 20 µM |
| CCCC[C@@H]1NC(=O)CN(S(C)(=O)=O)CCNC(=O)[C@H](CCCCN)NC(=O)[C@H](CC(C)C)NC(=O)[C@H](CCCCN)NC(=O)[C@H](CC(C)C)NC(=O)[C@H](CCCCN)NC(=O)COC[C@H]2CCCN2C(=O)[C@H](Cc2c[nH]c3ccccc23)NC(=O)[C@H](C)NC(=O)[C@H]([C@@H](C)CC)NC(=O)[C@H](C(C)C)NC1=O | NCI-H929 | viability, TO-PRO-3 staining, flow cytometry |  | 9.1 µM |
| C[C@@]1(C(=O)O)CC/C=C/[C@H](OC(=O)Nc2ccn([C@@H]3O[C@H](CO)[C@@H](O)C3(F)F)c(=O)n2)CC1 | MC-38 | cell growth or viability, MTT | 24 h | 0.026 µM |
| [Cl][Pd-]1([Cl])[S]C(Nc2ccccc2)=N[N+]1=Cc1ccc(-c2ccccc2)s1 | MDCK | cell proliferation |  | 100 µM |
| CC(C)[C@H](NC(=O)OC(C)(C)C)C(=O)OC1CC2(C)C(CC(O)C3C(C4(C)CCCC(C)(C)O4)CCC32C)C2(C)CCC(O)C(C)(C)C12 (some centres unmarked) | Hep3B | HRE reporter gene, inhibitor | 24 h, hypoxia | 0.54 ± 0.09 µM |
| C#CCOc1ccc(C(=O)c2ccc(NC(=O)C(=O)NCCc3ccc(O)cc3)cc2)cc1 | NSCLC cell lines | cell viability | range over eight lines | 0.003 to 0.015 µM |
| CCCC[C@@H]1NC(=O)CN(S(C)(=O)=O)CCNC(=O)[C@H](CCCCN)NC(=O)[C@H](CC(C)C)NC(=O)[C@H](CCCCN)NC(=O)[C@H](CC(C)C)NC(=O)[C@H](CCCCN)NC(=O)COC[C@H]2CCCN2C(=O)[C@H](Cc2c[nH]c3ccccc23)NC(=O)[C@H](C)NC(=O)[C@H](CC(C)C)NC(=O)[C@H](C(C)C)NC1=O | NCI-H929 | viability, TO-PRO-3 staining, flow cytometry |  | 10.6 µM |
| COc1cc(CN2CCN(c3ccc([N+](=O)[O-])cc3)CC2)c2cc3[n+](cc2c1O)CCc1cc2c(cc1-3)OCO2 | Ca-Ski | cell growth or viability, SRB | 48 h | 4.56 µg/mL |
| C1=[N+]2CCCC[N+]3=Cc4ccc5[n]4[Au-]23[n]2c1ccc2-c1nc2ccccc2nc1-5.F[P-](F)(F)(F)(F)F | colon cancer cell lines |  | NCI60 panel mean | 10 µM |
| C#CCOc1ccc(-c2n(CC(=O)O[C@@H]3C[C@H](C)CC[C@H]3C(C)C)c3ccccc3[n+]2C)cc1N=[N+]=[N-] | HTS | cell growth or viability, ATP luminescence | 96 h | 0.35 µM |
| COc1c(OCCCCN2CCCC2)cc(O)c2c(=O)cc(-c3ccccc3)oc12 | KBM5 | cell growth or viability, CCK-8 |  | 17.6 µM |
| Cc1nccn1-c1nc(NN=Cc2c[nH]c3ccccc23)nc(Nc2ccc(Br)cc2)n1 | SK-BR-3 | cell growth or viability, SRB | 5 days | 0.6 µM |

A few entries again:
| SMILES | cell line | assay | setting | IC50 |
| --- | --- | --- | --- | --- |
| CCCC[C@@H]1NC(=O)CN(S(C)(=O)=O)CCNC(=O)[C@H](CCCCN)NC(=O)[C@H](CC(C)C)NC(=O)[C@H](CCCCN)NC(=O)[C@H](CC(C)C)NC(=O)[C@H](CCCCN)NC(=O)COC[C@H]2CCCN2C(=O)[C@H](Cc2c[nH]c3ccccc23)NC(=O)[C@H](C)NC(=O)[C@H]([C@@H](C)CC)NC(=O)[C@H](C(C)C)NC1=O | NCI-H929 | viability, TO-PRO-3 staining, flow cytometry |  | 9.1 µM |
| C[C@@]1(C(=O)O)CC/C=C/[C@H](OC(=O)Nc2ccn([C@@H]3O[C@H](CO)[C@@H](O)C3(F)F)c(=O)n2)CC1 | MC-38 | cell growth or viability, MTT | 24 h | 0.026 µM |
| [Cl][Pd-]1([Cl])[S]C(Nc2ccccc2)=N[N+]1=Cc1ccc(-c2ccccc2)s1 | MDCK | cell proliferation |  | 100 µM |
| CC(C)[C@H](NC(=O)OC(C)(C)C)C(=O)OC1CC2(C)C(CC(O)C3C(C4(C)CCCC(C)(C)O4)CCC32C)C2(C)CCC(O)C(C)(C)C12 (some centres unmarked) | Hep3B | HRE reporter gene, inhibitor | 24 h, hypoxia | 0.54 ± 0.09 µM |
| C#CCOc1ccc(C(=O)c2ccc(NC(=O)C(=O)NCCc3ccc(O)cc3)cc2)cc1 | NSCLC cell lines | cell viability | range over eight lines | 0.003 to 0.015 µM |
